Experimental data gathered from unrelated publications.
Numbered parts are unrelated; each lists some results of a single study. Changes are numbered by the printed parent chain.

Sample 1 — technique: DHFR PCA, deep sequencing; matrix: yeast; with: (+)-ABA 17 µM; relative to: wild-type fitted maximum; direction: higher = stronger binding
Target: ABI1, truncated, D143A, DHFR fusion (Arabidopsis thaliana)
Setting: methotrexate growth selection, single substitutions
Starting sequence: PYL1, truncated, DHFR fusion (Arabidopsis thaliana); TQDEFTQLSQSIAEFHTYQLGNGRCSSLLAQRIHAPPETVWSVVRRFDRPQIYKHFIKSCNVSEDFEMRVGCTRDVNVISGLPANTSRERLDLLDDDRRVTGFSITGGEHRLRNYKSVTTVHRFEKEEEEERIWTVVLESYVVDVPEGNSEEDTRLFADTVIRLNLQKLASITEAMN; partner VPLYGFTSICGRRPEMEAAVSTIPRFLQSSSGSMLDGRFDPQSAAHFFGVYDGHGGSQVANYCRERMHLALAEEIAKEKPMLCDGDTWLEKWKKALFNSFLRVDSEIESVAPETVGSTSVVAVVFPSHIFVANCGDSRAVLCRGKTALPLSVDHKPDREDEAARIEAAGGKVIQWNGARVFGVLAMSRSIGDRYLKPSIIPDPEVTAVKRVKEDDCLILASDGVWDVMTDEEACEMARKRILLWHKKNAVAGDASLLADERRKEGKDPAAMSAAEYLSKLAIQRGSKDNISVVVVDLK
For `E129D`, “relative binding score” read 96.7%.
`S87G` — result for “relative binding score”: -2.05%.
`I12Q` — result for “relative binding score”: 11.4%.
`E139S` — result for “relative binding score”: 56.3%.
For `V76E`, “relative binding score” read -16.5%.
Under “relative binding score”, `L29F` is recorded as 10.2%.
For `P36V`, “relative binding score” read 44.8%.
`R74Y` — result for “relative binding score”: -21.8%.

Sample 2 — read-out: enzyme activity; action: inhibitor; tested at: 0.5 µM; relative to: control
Target: Cyclin-dependent kinase 4, with cyclin D1 (CDK4, Homo sapiens, UniProt P11802)
Chain of UniProt P11802 (whole entry, looked up): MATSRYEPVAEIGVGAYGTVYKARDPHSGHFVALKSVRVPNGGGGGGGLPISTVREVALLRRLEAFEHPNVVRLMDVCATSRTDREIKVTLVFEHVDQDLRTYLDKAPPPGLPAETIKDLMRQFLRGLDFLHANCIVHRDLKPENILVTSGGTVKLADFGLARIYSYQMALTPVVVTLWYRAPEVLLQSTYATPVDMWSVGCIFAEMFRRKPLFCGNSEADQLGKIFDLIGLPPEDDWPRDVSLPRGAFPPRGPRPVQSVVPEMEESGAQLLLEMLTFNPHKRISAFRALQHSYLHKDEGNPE
The remaining activity of `O=C(NC(NC(=S)Nc1ccc(F)c([N+](=O)[O-])c1)C(Cl)(Cl)Cl)C(c1ccccc1)c1ccccc1` (stereo not shown) is reported as 116%.
For `N#Cc1c(NC(=O)c2cccc3ccccc23)sc2c1CCCC2`, the remaining activity was 98.7%.
The remaining activity of `O=C(Nc1cccc(Nc2nccc(Nc3cccc(C(F)(F)F)c3)n2)c1)C1CC1` is reported as 101%.
For `CN(C)C[C@H]1CCn2c(c(C3=C(c4cn(C)c5ccccc45)C(=O)NC3=O)c3ccccc32)C1`, the remaining activity was 86.9%.
With `CCN(CC)C(=O)c1ccc(Nc2nc(OCC3CCCCC3)c3[nH]cnc3n2)cc1` the remaining activity was 82%.
`N#C/C(=C\c1ccc(O)c(O)c1)C(=O)NCc1ccccc1` gave a remaining activity of 109%.

Sample 3 — cell line: normal-adjacent organoid sample F; technique: CellTiter-Glo; tested at: 0.1 µM; setting: replicate mean; relative to: DMSO
`Cc1cc(Nc2nccc(C)n2)cc(-c2cnc([C@@]3(O)CC[C@H](C(=O)O)C(C)(C)C3)s2)c1` has a viability of 107%.
`COc1ccc2cc(OCC3(C(=O)O)CN(C(=O)c4ccc(F)cc4)C3)ccc2c1` has a viability of 136%.
`CNC(=O)c1ccc(Nc2ncc(C(F)(F)F)c(NCc3nccnc3N(C)S(C)(=O)=O)n2)cc1` gave a viability of 103%.
`Cc1c[nH]c2nccc(Oc3c(F)cc(Nc4cc(Cl)nc(N)n4)cc3F)c12` has a viability of 113%.
`CN(C)C(=O)Cn1cc(-c2nc([C@@](C)(c3ccc(-c4cnc(N)nc4)cc3)C3CC3)no2)cn1` gave a viability of 104%.
`CS(=O)(=O)N1CCCC(NC(=O)[C@H](CCC2CCCCC2)NC(=O)c2ccc(CNC(=O)c3cnc4ccccn34)cc2)C1` (stereo partly shown) has a viability of 131%.
For `O=C(O)[C@H]1[C@H](Cn2nnc3ccccc3c2=O)CC[C@@H]1C(=O)c1ccc(OCCC2CCOCC2)cc1`, the viability was 114%.
`O=C(Nc1ccc(Oc2ccc(F)cc2)cc1)N1CCc2ncccc2[C@H]1c1ccc(F)cc1` has a viability of 99%.
`O=C(c1ccc(F)cc1)N1CC(COc2ccc(Br)cc2)(C(=O)O)C1` has a viability of 104%.
`Cc1cc(C)c(-n2ccn3nc(-c4cccnc4)cc23)cc1NC(=O)c1cc(C#N)cc(S(F)(F)(F)(F)F)c1` has a viability of 97.9%.
`Cc1nc(Cc2cccc(C(F)(F)F)c2)sc1-c1ccc(C(N)=O)nc1` has a viability of 110%.
For `COc1cccc(CNC(=O)c2nc3scc(COCc4ccc(C(=O)O)cc4)c3c(=O)[nH]2)c1`, the viability was 111%.
`COCCOc1nc(-c2ccc(Cl)nc2)nc2c1CN(C(=O)c1ncn3ccccc13)CC2` gave a viability of 87.4%.

Other studies, line by line
The inhibition of `C[C@@H]1[C@H](O)[C@@H](C)/C=C/C=C/C=C/C=C/C=C/C=C/C=C/[C@H](O[C@@H]2O[C@H](C)[C@@H](O)[C@H](N)[C@@H]2O)C[C@@H]2O[C@](O)(C[C@@H](O)C[C@@H](O)[C@H](O)CC[C@@H](O)C[C@@H](O)CC(=O)O[C@H]1C)C[C@H](O)[C@H]2C(=O)O` is reported as 0% (Leishmania donovani; parasite growth, imaging; THP-1; 2 nM, intracellular, amastigote).
